Published values of several laboratories.
± marks the error that the study gave. Values after ≈ are worked out from the molar mass of the structure shown.

CSCOC1C(=O)C2(C)C(OCSC)CC3OCC3(OC(C)=O)C2C(OC(=O)c2ccccc2)C2(O)CC(OC(=O)C(O)C(C=C(C)C)NC(=O)OC(C)(C)C)C(C)=C1C2(C)C (stereo not drawn)
Vd (male Sprague-Dawley rat, plasma; intravenous, 1 mg/kg): 44.9 L/kg

O=C(O)C1OC(OC2C(COS(=O)(=O)O)OC(OC3C(C(=O)O)OC(OC4C(COS(=O)(=O)O)OC(OC5C(C(=O)O)OC(OC6C(COS(=O)(=O)O)OC(OC7C(C(=O)O)OC(OC8C(COS(=O)(=O)O)OC(OC9C(C(=O)O)OC(OC%10C(COS(=O)(=O)O)OC(OC%11C(C(=O)O)OC(Oc%12ccc([N+](=O)[O-])cc%12)C(O)C%11O)C(NS(=O)(=O)O)C%10O)C(OS(=O)(=O)O)C9O)C(NS(=O)(=O)O)C8O)C(OS(=O)(=O)O)C7O)C(NS(=O)(=O)O)C6O)C(OS(=O)(=O)O)C5O)C(NS(=O)(=O)O)C4O)C(OS(=O)(=O)O)C3O)C(NS(=O)(=O)O)C2OS(=O)(=O)O)C(O)C(O)C1OC1OC(COS(=O)(=O)O)C(O)C(O)C1NS(=O)(=O)O (stereo not drawn)
haemoglobin (rats, blood; intravenous, 3600 µg/kg/day for 7 days, day 8): 14.8 ± 0.3 g/dL

O=C([O-])CN1CCN(CC(=O)[O-])CCN(CC(=O)NC[C@H]2CC[C@H](C(=O)N[C@H](Cc3cnc4ccccc4c3)C(=O)NCCCC[C@H](NC(=O)N[C@@H](CCC(=O)O)C(=O)O)C(=O)O)CC2)CCN(CC(=O)[O-])CC1.[64Cu+2]
absorbed dose (PET/CT, OLINDA/EXM dosimetry; healthy human volunteers, oesophagus): 0.013 mGy/MBq

O=C(Nc1nccs1)C(c1cc(F)ccc1O)N1Cc2ccccc2C1=O (stereo not drawn)
recovery (mouse plasma, low QC; 6 ng/mL, 1.5 months, -30 °C): 101 ± 2.9%

Cn1c(=O)oc2ccc(-c3ccc(CC(C#N)NC(=O)C4CNCCCO4)c(F)c3)cc21 (stereo not drawn)
treatment-emergent adverse event incidence (measured: blood creatine phosphokinase increased; human volunteers; oral, dose not given): 3.7%

[Cl-].[Cl-].[Ru+2].c1ccc2nc3c4cccnc4c4ncccc4c3nc2c1.c1ccncc1.c1ccncc1.c1ccncc1.c1ccncc1
hemolysis (red blood cells, rabbit; 5 µM, 2 h, 37 °C): 0.07 ± 0.01%

COc1cc2c(cc1OC)CN(CCCCn1ccc3cc(OCC[18F])ccc31)C2
brain/blood ratio (ICR mice, male; intravenous, 15 min): 3.13

CCC1CC2C(C)=CC3C(=O)CCCC3C=CC(C)=CC2C(=O)O1 (stereo not drawn)
plasma concentration (ICR mouse, male, plasma; oral, 30 mg/kg, 30 min): 1.5 ± 2.6 ng/mL

CCCC[C@H](NC(=O)CNC(=O)CNC(=O)CN1CCN(CC(=O)O)CCN(CC(=O)O)CCN(CC(=O)O)CC1)C(=O)N[C@H]1CC(=O)NCCCC[C@@H](C(N)=O)NC(=O)[C@H](Cc2c[nH]c3ccccc23)NC(=O)[C@H](CCCNC(=N)N)NC(=O)[C@@H](Cc2ccccc2)NC(=O)[C@H](Cc2c[nH]cn2)NC1=O [gallium-67 labelled]
urinary excretion (C57 mice, female, B16/F1 melanoma, urine; intravenous, 0.037 MBq, 0.5 h): 59.4 ± 5.31%

CC(C)[C@H](NC(=O)CNC(=O)[C@H](CCC(N)=O)NC(=O)[C@H](C)N)C(=O)O
AUC(0-last) (LC-MS/MS; human, plasma; intravenous, 30 mg/kg three times daily, day 1, first dose, 10 min infusion, geometric mean): 645 ng·h/mL

COc1cc(NC(C)=O)c2c(c1O)-c1c(OC)c(OC)cc3c1C(C2)N(C)CC3 (stereo not drawn)
remaining compound (rat heart homogenate; 100 µg/mL, 4 h, room temperature, short-term storage): 93.7 ± 2.8%

NS(=O)(=O)c1ccc(-n2nc(C(F)(F)F)cc2-c2ccc(F)cc2F)cc1
metabolite formation rate (substrate; human liver microsomes; 20 µM, 0 to 30 min, pH 7.4): 33.7 pmol/min/mg

Cn1cc(C(N)=O)c(NC2C3CC4CC2CC(OS(=O)(=O)O)(C4)C3)c2ccnc1-2 (stereo not drawn)
AUC(0-t) (Japanese adults, normal hepatic function, plasma; oral, 150 mg single dose): 412 ng·h/mL

COc1ccc(-c2ccn(CC[C@](C)(C(=O)NO)S(C)(=O)=O)c(=O)c2)c(F)c1
clearance (CF-1 mouse, female; subcutaneous, 300 mg/kg): 65.3 ± 0.667 mL/min/kg

NC12CNCCNCC(NCc3ccc(CNC(=O)CCCC(=O)NCc4ccc(-c5nncnn5)cc4)cc3)(CNCCNC1)CNCCNC2.[64Cu+2]
mean absorbed dose (OLINDA dosimetry; upper large intestine wall; pretargeting, 48-h interval): 0.0382 rad/mCi

CCCC[C@H](NC(=O)CN1CCC(NC(=O)CN2CCN(CC(=O)O)CCN(CC(=O)O)CCN(CC(=O)O)CC2)CC1)C(=O)N[C@H]1CC(=O)NCCCC[C@@H](C(N)=O)NC(=O)[C@H](Cc2c[nH]c3ccccc23)NC(=O)[C@H](CCCNC(=N)N)NC(=O)[C@@H](Cc2ccccc2)NC(=O)[C@H](Cc2c[nH]cn2)NC1=O [gallium-68 labelled]
intact compound (radio-HPLC; mouse, plasma; intravenous, 8 to 12 MBq, 15 min post injection): > 93%

CC(CN1CCC(Cc2ccccc2)CC1)C(O)c1ccc(O)cc1 (stereo not drawn)
locomotor activity (rat; intraperitoneal, dose not given, 2 h cumulative, high doses): increased

CC(=O)N([O-])CCCCCNC(=O)CCC(=O)N([O-])CCCCCNC(=O)CCC(=O)N([O-])CCCCCN.[89Zr+4]
intact complex (radio-iTLC; aqueous buffer; 3 h, pH 5.0, 37 °C, EDTA challenge, together with: 100-fold excess EDTA): 27.3 ± 3.3%

CCn1c(=O)n(CCO)c(=O)c2c1nc(/C=C/c1ccc(OC)c(OC)c1)n2C
metabolite to parent ratio, Cmax (healthy human subjects, plasma; oral, 40 mg istradefylline, together with: rifampin 600 mg/day; reference: metabolite over parent): ~14%

CC(C)CCN(c1nc(C#N)nc(NC2COC2)n1)C(C)c1ccc(F)cc1 (stereo not drawn)
thermodynamic solubility (water): 42 µM (≈ 16.1 µg/mL)

COc1ccc2cc(-c3ccc(-c4ccc(C)cn4)nc3)oc2c1
fluorescence lifetime (TCSPC; toluene): 1.28 ns

Oc1ccc2ccccc2c1/N=N/c1ccc(/N=N/c2ccccc2)cc1
elimination rate constant (Sprague-Dawley rats both sexes, whole blood; oral, 50 mg/kg): 8.05e-05 s⁻¹

COC(=O)c1ccc(-c2cn(Cc3cc(Cl)ccc3O[11CH3])nn2)cc1
distribution volume (PET, one-tissue compartment model; rhesus monkey, brain Amygdala; dose not given): 0.559 mL/cm³

CCCC[C@H](NC(=O)CNC(=O)CNC(=O)CN1CCN(CC(=O)O)CCN(CC(=O)O)CCN(CC(=O)O)CC1)C(=O)N[C@H]1CC(=O)NCCCC[C@@H](C(N)=O)NC(=O)[C@H](Cc2c[nH]c3ccccc23)NC(=O)[C@H](CCCNC(=N)N)NC(=O)[C@@H](Cc2ccccc2)NC(=O)[C@H](Cc2c[nH]cn2)NC1=O [copper-64 labelled]
tissue uptake (C57 mouse B16/F1 melanoma, skin; 4 h): 1.27 ± 0.47 %ID/g

CC(=O)N([O-])CCCCCNC(=O)CCC(=O)N([O-])CCCCCNC(=O)CCC(=O)N([O-])CCCCCN.[89Zr+4]
tracer uptake (mouse, liver; 24 h): 0.22 %ID/g

Cc1[nH]nc2c1N=C(c1ccccc1Cl)c1cnc(NCCOCCO)cc1N2
metabolite to parent ratio (human male, plasma; oral, 10 mg, 0-120 h; reference: metabolite AUC over parent AUC): 0.07%

Nc1ncnc(NCC2CCN(C(=O)C(O)CO)CC2)c1-c1ccc(Oc2ccccc2)cc1 (stereo not drawn)
AUC(0-24) ratio (healthy male human, plasma; oral, 75 mg evobrutinib; reference: metabolite over evobrutinib): 202%

Cn1cc(-c2cc(N3CCCCS3(=O)=O)ccc2N[C@H]2CC[C@H](C)CC2)c2cc[nH]c2c1=O (stereo in doubt)
oral bioavailability (Sprague-Dawley rat, plasma; oral vs intravenous, 3 mg/kg oral, 1 mg/kg i.v.): 21%

NCC(=O)N1CCC[C@H]1C(=O)N1C[C@H](O)C[C@H]1C(=O)O
log beta (potentiometric titration; 40 °C, MAH-1 complex, together with: Fe(III)): 13.4

OCc1cn(Cc2ccc(-c3noc(-c4ccc(OCC[18F])c(C(F)(F)F)c4)n3)cc2)nn1
tracer uptake (rat, blood; intravenous, 2 h): 0.35 %ID/g

C=C(c1cc(F)c(C(=O)O)c(F)c1)c1cc2c(cc1C)C(C)(C)CCC2(C)C
blood cholesterol (Sprague-Dawley rat, male; oral, 100 mg/kg, 24 h, sesame oil vehicle): 47 ± 8 mg/dL

COC[C@@H](CC(C)C)NC(=O)c1ccc(C)c(CO)c1
metabolite peak area (LC-MS; human liver microsomes; 10 µM of parent drug, 20 min, pH 7.4, together with: NADPH; reference: parent drug at time zero): 1.8%

CCCC[C@H](NC(C)=O)C(=O)N[C@H]1CC(=O)NCCCC[C@@H](C(=O)N[C@@H](C(=O)N2CCC[C@@H]2C(N)=O)C(C)C)NC(=O)[C@H](Cc2c[nH]c3ccccc23)NC(=O)[C@H](CCCN=C(N)N)NC(=O)[C@@H](Cc2ccc3ccccc3c2)NC(=O)[C@@H]2CCCN2C1=O
plasma histamine (healthy dogs, plasma; subcutaneous, 2.25 mg/kg per day, day 1, 1 h post-dose, median): 8.8 ng/mL

CC(C)(Sc1cc[n+]([O-])cc1-c1ccc(C#N)c2ccccc12)C(=O)OC1OC(C(=O)O)C(O)C(O)C1O (stereo not drawn)
fraction excreted unchanged (urine; oral, 15 mg, 72 h, mild renal impairment; reference: dose): 18.8%

CC(O)c1nc(-c2ccc3c(c2)CCC3NC(=O)c2cnn(C)c2)no1 (stereo not drawn)
radioactive dose excreted in urine (human, pooled urine; oral, 20 mg; reference: dose): 2.85%

Cc1ccc(OCC(=O)O)cc1
Cmax (Sprague-Dawley rat Crl:CD(SD), female, plasma; oral, 30 mg/kg/day of parent drug, day 90, 90-day repeated dosing): 3890 ± 1350 ng/mL

O=C(NCCCN(CCCCN(CCCNC(=O)c1cccc(=O)n1[O-])C(=O)c1cccc(=O)n1[O-])C(=O)c1cccc(=O)n1[O-])c1cccc(=O)n1[O-].[89Zr+4]
intact complex (radio-TLC; PBS; 1 d, pH 7.4, 37 °C, together with: Fe^3+ 10-fold excess): 89.8 ± 5.4%

COC(=O)/C=C/C(=O)c1ccc(OC)cc1
recovery (LC-MS/MS; rat plasma; 40 ng/mL, 15 days, -70 °C, long-term storage): 97.3 ± 4.02%

N=C(N)NCCC[C@@H]1NC(=O)[C@H](Cc2c[nH]c3ccccc23)NC(=O)[C@@H](CC2CCCCC2)NC(=O)[C@@H]2CCCN2C(=O)[C@@H](NC(=O)CCc2ccccc2)CCCNC1=O
alpha distribution rate constant (C57BL/6J mouse, spinal cord; subcutaneous, 1 mg/kg, single dose, two-compartment model): 1.28 h⁻¹

CCCC[C@H](NC(=O)CNC(=O)CNC(=O)CN1CCN(CC(=O)O)CCN(CC(=O)O)CCN(CC(=O)O)CC1)C(=O)N[C@H]1CC(=O)NCCCC[C@@H](C(N)=O)NC(=O)[C@H](Cc2c[nH]c3ccccc23)NC(=O)[C@H](CCCNC(=N)N)NC(=O)[C@@H](Cc2ccccc2)NC(=O)[C@H](Cc2c[nH]cn2)NC1=O [lead-203 labelled]
tissue uptake (C57 mouse, bone; intravenous, 0.056 MBq, 24 h): 1.06 ± 0.54 %ID/g

COc1cc(C)c(Cc2ccc(O)cc2)cc1[C@@H]1S[C@H](CO)[C@@H](O)[C@H](O)[C@H]1O
AUC(0-τ) ratio (Japanese T2DM patients, plasma; 0.5 mg luseogliflozin, day 7, once daily; reference: compound over luseogliflozin): 0.138 ± 0.0172

[11CH3]Oc1ccc(Cc2cn[nH]c2)nc1-c1cccc([N+](=O)[O-])c1
decline of parent plasma concentration (human, arterial plasma; dose not given, 60 to 120 min): 71%

Excerpt of the above:
CCC1CC2C(C)=CC3C(=O)CCCC3C=CC(C)=CC2C(=O)O1 (stereo not drawn)
plasma concentration (ICR mouse, male, plasma; oral, 30 mg/kg, 30 min): 1.5 ± 2.6 ng/mL

CCCC[C@H](NC(=O)CNC(=O)CNC(=O)CN1CCN(CC(=O)O)CCN(CC(=O)O)CCN(CC(=O)O)CC1)C(=O)N[C@H]1CC(=O)NCCCC[C@@H](C(N)=O)NC(=O)[C@H](Cc2c[nH]c3ccccc23)NC(=O)[C@H](CCCNC(=N)N)NC(=O)[C@@H](Cc2ccccc2)NC(=O)[C@H](Cc2c[nH]cn2)NC1=O [gallium-67 labelled]
urinary excretion (C57 mice, female, B16/F1 melanoma, urine; intravenous, 0.037 MBq, 0.5 h): 59.4 ± 5.31%

CC(C)[C@H](NC(=O)CNC(=O)[C@H](CCC(N)=O)NC(=O)[C@H](C)N)C(=O)O
AUC(0-last) (LC-MS/MS; human, plasma; intravenous, 30 mg/kg three times daily, day 1, first dose, 10 min infusion, geometric mean): 645 ng·h/mL

COc1cc(NC(C)=O)c2c(c1O)-c1c(OC)c(OC)cc3c1C(C2)N(C)CC3 (stereo not drawn)
remaining compound (rat heart homogenate; 100 µg/mL, 4 h, room temperature, short-term storage): 93.7 ± 2.8%

NS(=O)(=O)c1ccc(-n2nc(C(F)(F)F)cc2-c2ccc(F)cc2F)cc1
metabolite formation rate (substrate; human liver microsomes; 20 µM, 0 to 30 min, pH 7.4): 33.7 pmol/min/mg

Cn1cc(C(N)=O)c(NC2C3CC4CC2CC(OS(=O)(=O)O)(C4)C3)c2ccnc1-2 (stereo not drawn)
AUC(0-t) (Japanese adults, normal hepatic function, plasma; oral, 150 mg single dose): 412 ng·h/mL

COc1ccc(-c2ccn(CC[C@](C)(C(=O)NO)S(C)(=O)=O)c(=O)c2)c(F)c1
clearance (CF-1 mouse, female; subcutaneous, 300 mg/kg): 65.3 ± 0.667 mL/min/kg
